Measurements gathered from unrelated publications.
Protocols differ between the studies behind these lines. Values joined by “and” are separate records of one study, mostly repeats; a detail may differ.
LYN: Tyrosine-protein kinase Lyn (LYN, Homo sapiens, UniProt P07948)
LYN isoform B: Tyrosine-protein kinase Lyn, isoform B (LYN, Homo sapiens, UniProt P07948)

| Compound | target | test | conditions | scale | measurement | value |
| --- | --- | --- | --- | --- | --- | --- |
| Nc1ncc2c(n1)-c1c([nH]c3ccc(C4=CCOCC4)cc13)CCC2 | LYN | binding, competition with immobilised ligand | 1 µM | – | remaining binding | 100% |
| C=CC(=O)Nc1cccc(-c2cnc3[nH]cc(C(=O)NC(C)(C)C)c3n2)c1 | Tyrosine-protein kinase Lyn, isoform A (LYN, Homo sapiens, UniProt P07948) | kinase activity, inhibitor, kinase panel | 0.1 µM | – | inhibition | -6% and -7% |
| O=C=[N][Ru-4]123([n]4c5ccc(O)cc5c5c6c(c7cc(F)c[n+]1c7c54)C(=O)NC6=O)[S+]1CC[S+]2CC[S+]3CC1 (centres unmarked) | LYN | enzyme activity | 100 nM, human enzyme, with: 10 µM ATP | relative to: untreated | remaining activity | 86% |
| C=CC(=O)N1CCc2ccc(-n3c(=O)ccc4cnc5ccc(-c6cnn(C)c6)cc5c43)cc21 | LYN | KINOMEscan | 1 µM | relative to: DMSO control | remaining binding | 100% |
| COc1cc(Nc2nccc(-c3cnn4nc(OC)ccc34)n2)cc(C(F)(F)F)c1 | LYN | binding, competition with immobilised ligand | 1 µM | – | remaining binding | 100% |
| Cc1cnc2nc1Nc1cccc(c1)COC/C=C/COCc1cc(ccc1OCCN1CCOCC1)N2 | LYN | binding | 0.1 µM | – | remaining binding | 86% |
| COc1c(OCCCN2CCOCC2)ccc2c1N=C(NC(=O)c1cnc(N)nc1)N1CCN=C21 | LYN | kinase activity, inhibitor | 1 µM | relative to: untreated control | remaining activity | 101% |
| NC(=O)C[C@H]1CCc2sc3ncnc(O[C@H]4CC[C@H](N5CCOCC5)CC4)c3c21 | LYN isoform B | radioisotope kinase | 10 µM | – | inhibition | 5% |
| COCC12C(=O)NC3C4(C(OC)CC1O)C1CC5(O)C(OC)C(O)C(OC(C)=O)(C1C5OC(=O)c1ccccc1)C3(O)C(OC)C24 (centres unmarked) | LYN | kinase activity, inhibitor, ProQinase kinase profiling | 25 µM | relative to: control | remaining activity | 107% and 116% |
| CN1CCN(Cc2ccc(-c3ccc(CO[C@H]4CCC[C@@H]4NC(=O)c4cc(-c5cnn(C)c5)cnc4N)cc3)cc2)CC1 | LYN isoform B | SelectScreen kinase profiling | 0.1 µM | – | inhibition | 11% |
| Cc1cccc(O[C@H]2CCC[C@@H](C(C)CNCc3ccncc3)C2)c1 (relative stereo) | LYN isoform B | kinome profiling | 10 µM | – | inhibition | -13% |
| C=CC(=O)N1Cc2nc(-c3cc(-c4cc(Cl)cnc4Cl)c(F)cc3F)n(-c3ccncn3)c2C1 | LYN | kinome panel | 1 µM | – | inhibition | 3.1% |
| COc1ccc(NC(=O)Nc2ccc3c(c2)C(=O)N(C(C)CO)CC(C)C(CN(C)Cc2ccc4c(c2)OCO4)O3)cc1 (centres unmarked) | LYN | kinase activity, KinaseProfiler | 0.03 µM, species human | relative to: control | remaining activity | 101% |
| C=CC(=O)N1CCCC(n2c(=O)c3ncccc3n(Cc3ccc(Oc4ccccc4)cc3)c2=O)C1 (centres unmarked) | LYN | cell-free assay, competition with immobilised ligand | 1 µM | – | remaining binding | 100% |

Excerpt of the above:
| Compound | target | test | conditions | scale | measurement | value |
| --- | --- | --- | --- | --- | --- | --- |
| CN1CCN(Cc2ccc(-c3ccc(CO[C@H]4CCC[C@@H]4NC(=O)c4cc(-c5cnn(C)c5)cnc4N)cc3)cc2)CC1 | LYN isoform B | SelectScreen kinase profiling | 0.1 µM | – | inhibition | 11% |
| C=CC(=O)N1CCc2ccc(-n3c(=O)ccc4cnc5ccc(-c6cnn(C)c6)cc5c43)cc21 | LYN | KINOMEscan | 1 µM | relative to: DMSO control | remaining binding | 100% |
